Measured values from different studies.
Parts stem from different laboratories: compare values within a part only. Changes are numbered by the printed parent chain.

Series 1
Target: Sal-like protein 4, full length isoform B (SALL4, Homo sapiens, UniProt Q9UJQ4-2, residues 1-616)
Technique: universal PBM
Molecule type: double-stranded DNA, one strand shown
Sample: in vitro
Concentration: not given
Notes: 8-mer, flanks averaged, mean of replicates
Reading: higher = stronger binding
Target sequence (chain): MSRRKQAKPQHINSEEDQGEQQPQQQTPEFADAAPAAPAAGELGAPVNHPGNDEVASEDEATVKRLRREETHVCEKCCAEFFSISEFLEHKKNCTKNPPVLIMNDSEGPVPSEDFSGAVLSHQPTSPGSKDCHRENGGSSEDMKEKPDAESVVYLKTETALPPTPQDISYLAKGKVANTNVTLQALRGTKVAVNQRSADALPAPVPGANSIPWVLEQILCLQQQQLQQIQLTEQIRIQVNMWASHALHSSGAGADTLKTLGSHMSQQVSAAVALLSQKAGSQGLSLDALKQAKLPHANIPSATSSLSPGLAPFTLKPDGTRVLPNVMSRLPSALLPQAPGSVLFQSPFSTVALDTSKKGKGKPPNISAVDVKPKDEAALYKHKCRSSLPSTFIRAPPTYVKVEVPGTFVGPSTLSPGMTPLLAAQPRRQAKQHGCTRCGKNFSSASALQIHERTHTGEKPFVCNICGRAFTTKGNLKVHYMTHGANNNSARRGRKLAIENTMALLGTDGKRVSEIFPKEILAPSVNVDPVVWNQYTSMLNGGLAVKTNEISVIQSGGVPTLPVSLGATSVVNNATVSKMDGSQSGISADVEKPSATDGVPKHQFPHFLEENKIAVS
Sequence	E-score
CCTTCGAC	-0.147
ATACTCTA	0.222
AAAGTGTC	0.0546
TACGAGAA	-0.0157
CCGGCGAC	-0.333
CCTTGGTC	-0.212
ATCTTGAA	0.191
AAACGGTG	0.016
GTTAGAAA	0.117
AAACTGAA	0.139
CAGTCTGG	-0.181
AATTAGGA	0.212
CGTCTAAG	-0.194
GCCTTAAA	-0.0893
AGCAGTAG	-0.142
CGACAAAA	0.175
ATTGGCTC	0.118
TGTTCAAA	0.0752
ATAAAATC	0.3
AACGTGGG	-0.102
ACGCTAAT	0.102

Series 2
Target: Prothrombin, mature alpha-thrombin (F2, Homo sapiens, UniProt P00734)
Technique: aptamer microarray, sandwich
Molecule type: DNA with 2'F-ANA
Sample: in vitro
Concentration: 200 nM
Notes: whole 15-mer aptamer, many near background
With: Cy3 exosite-II aptamer, 400 nM
Reading: higher = stronger binding
Sequence: GGTTGGTGTGGTTGG
Modification	mean fluorescence intensity [a.u.]
2'F-ANA at 1 4 5 8 9 11 12 13 14	45.1
2'F-ANA at 5 6 12 15	144
2'F-ANA at 1 4 7 8 14 15	58.4
2'F-ANA at 1 3 4 7 10 13	57.6
2'F-ANA at 1 2 3 7 9 10 11 13	62.4
2'F-ANA at 1 3 6 7 13	212
2'F-ANA at 2 3 4 7 11 13	504
2'F-ANA at 1 2 4 5 6 9 11 12	87.2
2'F-ANA at 1 4 5 7 8 10 11 15	47.1
2'F-ANA at 1 3 6 8 11 12 13 15	452
2'F-ANA at 3 4 5 9 10 11 13 14 15	47.8
2'F-ANA at 1 2 3 5 6 8 9 11 12 14 15	67.7
2'F-ANA at 1 5 6 7 9 13 14 15	64.3
2'F-ANA at 2 5 6 8 12 13 15	164
2'F-ANA at 1 2 4 5 7 10	45.8
2'F-ANA at 1 5 6 7 9 15	59.1
2'F-ANA at 1 3 7 9 11 12 13 14 15	103
2'F-ANA at 3 5 10 12 15	85.4
2'F-ANA at 2 3 5 11 13 14	60.2
2'F-ANA at 1 3 5 7 8 10 11 13 15	48.5
2'F-ANA at 1 2 3 5 7 8 9 12 13 14	60.6
2'F-ANA at 1 3 4 9 10 12 13 14 15	58.7
2'F-ANA at 1 2 3 4 6 7 10 12 14	49.2
2'F-ANA at 3 4 6 7 10 12 13	259
2'F-ANA at 2 3 4 6 7 8 10 13 14	166

Series 3
Target: RNA binding protein fox-1 homolog 2, RRM domain, GST-SBP tag (RBFOX2, Homo sapiens, UniProt O43251-10, residues 100-194)
Technique: RNA Bind-n-Seq
Molecule type: RNA
Sample: in vitro
Concentration: 365 nM
Notes: natural RNA segment, single round, ends assumed
Relative to: no-protein control
Reading: higher = stronger binding
Constant ends, left off below: GGGAGUUCUACAGUCCGACGAUC … UGGAAUUCUCGGGUGCCAA
Residues (chain): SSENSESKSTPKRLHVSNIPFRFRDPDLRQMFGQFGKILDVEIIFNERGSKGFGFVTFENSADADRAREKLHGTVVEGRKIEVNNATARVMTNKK
Sequence	RBNS enrichment (R)
UAAGAAUGGUUGUGUUUGGAUACUUGUAAAUGCUGUUUAGUUAGAAAAAGCAUGUUAAGUUGGUAUAAGCAGUGAUUUUAAAUGAUUUUUAAAAAUAAGACGUCCUUCAA	5.51
ACUUGUUUUCCCGAUGUGUCCAGCCAGCUCCGCAGCAGCUUUUCAAAAUGCACUAUGCCUGAUUGCUGAUCGUGUUUUAACUUUUUCUUUUCCUGUUUUUAUUUUGGUAU	1.84
UAUGUCGAGGCUAUCCAGUGACAGCCCAUGGGCAGGCUGGCGGAGAGACGGAAAUGGGCAGUUCAGGAGCUCCGUUAGCCUUGGCCUGGGCAGUGACACCUCUAGUGCCC	0.512
CCUGUUCCUGAUGGCCCGUUAUUGGACACUGGUGAUGCUAUUAUCCUGUAUUAUUUAUUAAUAUCCUACCUAGAUGCUUGUAUGAGUACAAAGCAUAAAGAAACAGAUUU	0.493
UUGAUUUUCCUCUGGGCCCAAAUAUAGCCCUCACACUCUUGGAAUUUCCAGGUAUGGGGGUAGCCCCAAAAGGAGGAAUCUCCUAUGGCCAAUAAGGUAUCUUGACUUUA	0.418
CUCAGUGAACAGAAUAGCAGUCCCUGGAUGGCAGUCUGCCUAAAGAUUCCUUUCCCUGCCUUCUCCCAUACAUUCCAAAAGGAAGUUCAACAGUAAGCAGCACCUCCAAG	0.323
CUGUACCACUAGGGCAUCCAGAACAAGCCCCACCCUAACAGUGGGGGCAGGGAGGGUACAGCCAGGCUCACAGCACUGAGAGUCUCAACCAGCUAAGCUAAAUUGCAAGC	0.346
GAAGGUGUUAUGCGGCUGCUCCCUCCGUCCCAGAGGUGGCAGUGAUUCCAUAAUGUGGAGACUAGUAACUAGAUCCUAAGGCAAAGAGGUGUUUCUCCUUCUGGAUGAUU	0.449
AAUGCGAGAGCCCCUGGGCCGGUGGCUCUCGGGGGCUGGUCCAUGGGCGGCUGUGGCGUCAGGAUGGAGUCCUAGCUGUGACCUGUGCCCAGGAGGGCGUGAUCCGAGUG	0.406
UUCAUCUGAGCAUAACUGUACUAAAUCCUUUUUCCAUAUCAGUAUAAUAAAGGAGUGAUGUGCAAUAGCUUCUUGUGUGAUGUGGAAGACCUUAUCUGAGGAAACUUUAG	0.25
CUGGCUGACAGAUGCUGCUCUUGGGCACCUGUCCCCACCCCACCUGCCCUGCUGUCCUCUGUAUCACACAAGACGUCUCGCUUGCUGUGUCGUGGUUUAGCUCCUCGGUG	0.37
UCUUAAAAAUUCGUUGCAUUGAAGGAUAUUUUGCAUGUCUGUAACACCUGUCAAUACUUGUUUGUAUUGAUUUCUGAUAUUCUUGCAGCUGACUACGUGUAAUUGGGCAG	3.5

Series 4
Target: ATP-dependent RNA helicase DDX3X, helicase core (DDX3X, Homo sapiens, UniProt O00571, residues 132-607)
UniProt O00571, sequence (132-607, looked up): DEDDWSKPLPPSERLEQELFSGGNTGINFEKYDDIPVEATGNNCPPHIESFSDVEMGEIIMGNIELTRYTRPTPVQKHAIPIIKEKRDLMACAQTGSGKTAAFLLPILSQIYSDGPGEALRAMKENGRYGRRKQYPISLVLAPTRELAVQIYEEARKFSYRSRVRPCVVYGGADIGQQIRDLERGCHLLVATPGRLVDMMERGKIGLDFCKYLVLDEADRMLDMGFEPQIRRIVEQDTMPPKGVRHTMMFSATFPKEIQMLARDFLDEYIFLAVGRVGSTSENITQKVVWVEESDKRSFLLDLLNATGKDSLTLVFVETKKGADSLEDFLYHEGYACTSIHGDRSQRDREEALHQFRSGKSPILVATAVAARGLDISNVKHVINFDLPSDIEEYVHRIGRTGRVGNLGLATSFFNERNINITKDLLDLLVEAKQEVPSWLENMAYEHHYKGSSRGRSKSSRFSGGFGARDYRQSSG
Technique: RNA Bind-n-Seq
Molecule type: RNA
Sample: in vitro
Concentration: 90 pmol
Notes: 4-mer, random 30-nt RNA, single round
With: 3 µM DMDA-PatA, 2 mM ADP, 2 mM phosphate
Relative to: input library
Reading: higher = stronger binding
Sequence	4-mer enrichment
UUAC	0.894 fold
GUUA	1.07 fold
CUAA	0.891 fold
GGGC	1.07 fold
AGUA	1.13 fold
CAAG	1.18 fold
GCGA	1.01 fold
GAGC	1.01 fold
CACC	1.05 fold
CGCC	0.948 fold
GUGA	1.12 fold
GUCC	0.939 fold
AUUG	0.926 fold
ACCU	0.851 fold
UCAA	1.03 fold
AAUU	1.08 fold

Series 5
Target: Histone acetyltransferase KAT6A, winged helix 1, GST fusion (KAT6A, Homo sapiens, UniProt Q92794, residues 1-85)
Technique: protein binding microarray
Molecule type: double-stranded DNA, one strand shown
Sample: in vitro
Concentration: not given
Notes: 8-mer, flanks averaged, mean of 2 arrays, mostly near background
Relative to: not given
Reading: higher = stronger binding
Construct (chain): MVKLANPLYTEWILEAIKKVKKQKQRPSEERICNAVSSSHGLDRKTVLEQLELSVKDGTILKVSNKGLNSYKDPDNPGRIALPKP
Sequence	E-score
AGCGATCC	0.087
AAATAGTT	-0.0487
GAACAAGC	0.00206
TAAAAATA	-0.17
ACGTATTC	-0.0104
CGTACACA	0.0194
CCGAGTGC	0.182
CTTAGGGC	-0.0243
ACGACGAT	-0.00947
AGCAATTG	-0.0331
ATGGCGGC	0.287
GCGTGGAC	0.233
AAAGTGAT	-0.229
AACCTTCG	-0.0522
CGCTTTAG	0.144
ACACCAAA	-0.0953
AGATCGGC	0.205
CGAAATAA	-0.0169
GGACGCCC	0.168
CCCTCGCA	0.0164
AGCGTGAA	0.0117

Series 6
Target: ABI1, truncated, D143A, DHFR fusion (Arabidopsis thaliana)
Technique: DHFR PCA, deep sequencing
Sample: yeast
Notes: methotrexate growth selection, single substitutions
With: (+)-ABA 58 µM
Relative to: wild-type fitted maximum
Reading: higher = stronger binding
Starting sequence: PYL1, truncated, DHFR fusion (Arabidopsis thaliana); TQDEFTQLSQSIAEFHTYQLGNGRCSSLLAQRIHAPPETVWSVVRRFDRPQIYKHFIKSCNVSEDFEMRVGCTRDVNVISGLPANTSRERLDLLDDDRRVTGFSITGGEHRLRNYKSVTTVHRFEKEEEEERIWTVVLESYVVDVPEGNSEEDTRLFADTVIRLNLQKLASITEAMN
Substitution	relative binding score [%]
N77E	93.6
S140M	-3.46
T17M	68.9
P36Q	70.6
G107K	44.3
R45M	-5.65
R74P	-6.78
P83C	22.4
D75S	86.5
A175G	87.4
E4K	71.4
D65N	86.6
E139M	69.6
H16Q	22.2
R88M	70.1
H55G	88.4
L28M	93.4

Series 7
Target: Myc proto-oncogene protein, bHLH-zipper, MAX partner unstated (MYC, Homo sapiens, UniProt P01106, residues 368-449)
UniProt P01106, sequence (368-449, looked up): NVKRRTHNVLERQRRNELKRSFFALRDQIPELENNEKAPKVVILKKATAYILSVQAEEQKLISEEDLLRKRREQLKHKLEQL
Technique: protein-binding microarray
Molecule type: double-stranded DNA, one strand shown
Sample: in vitro
Concentration: not given
Notes: k-mer, scored over probes, only values ≥0.25
Reading: higher = stronger binding
Sequence	E-score
AAAACATG	0.269
GCATATGC	0.343
CGCGAGGA	0.302
ACGACACG	0.335
CCACGGGG	0.368
CCCCATGA	0.258
ACGTGAGC	0.269
GGTGGGGA	0.289
ACCATGCC	0.407

Repeated from above (series 3):
Sequence	RBNS enrichment (R)
UUGAUUUUCCUCUGGGCCCAAAUAUAGCCCUCACACUCUUGGAAUUUCCAGGUAUGGGGGUAGCCCCAAAAGGAGGAAUCUCCUAUGGCCAAUAAGGUAUCUUGACUUUA	0.418
UAAGAAUGGUUGUGUUUGGAUACUUGUAAAUGCUGUUUAGUUAGAAAAAGCAUGUUAAGUUGGUAUAAGCAGUGAUUUUAAAUGAUUUUUAAAAAUAAGACGUCCUUCAA	5.51
UCUUAAAAAUUCGUUGCAUUGAAGGAUAUUUUGCAUGUCUGUAACACCUGUCAAUACUUGUUUGUAUUGAUUUCUGAUAUUCUUGCAGCUGACUACGUGUAAUUGGGCAG	3.5
UUCAUCUGAGCAUAACUGUACUAAAUCCUUUUUCCAUAUCAGUAUAAUAAAGGAGUGAUGUGCAAUAGCUUCUUGUGUGAUGUGGAAGACCUUAUCUGAGGAAACUUUAG	0.25
CCUGUUCCUGAUGGCCCGUUAUUGGACACUGGUGAUGCUAUUAUCCUGUAUUAUUUAUUAAUAUCCUACCUAGAUGCUUGUAUGAGUACAAAGCAUAAAGAAACAGAUUU	0.493
ACUUGUUUUCCCGAUGUGUCCAGCCAGCUCCGCAGCAGCUUUUCAAAAUGCACUAUGCCUGAUUGCUGAUCGUGUUUUAACUUUUUCUUUUCCUGUUUUUAUUUUGGUAU	1.84
UAUGUCGAGGCUAUCCAGUGACAGCCCAUGGGCAGGCUGGCGGAGAGACGGAAAUGGGCAGUUCAGGAGCUCCGUUAGCCUUGGCCUGGGCAGUGACACCUCUAGUGCCC	0.512
CUCAGUGAACAGAAUAGCAGUCCCUGGAUGGCAGUCUGCCUAAAGAUUCCUUUCCCUGCCUUCUCCCAUACAUUCCAAAAGGAAGUUCAACAGUAAGCAGCACCUCCAAG	0.323
AAUGCGAGAGCCCCUGGGCCGGUGGCUCUCGGGGGCUGGUCCAUGGGCGGCUGUGGCGUCAGGAUGGAGUCCUAGCUGUGACCUGUGCCCAGGAGGGCGUGAUCCGAGUG	0.406
GAAGGUGUUAUGCGGCUGCUCCCUCCGUCCCAGAGGUGGCAGUGAUUCCAUAAUGUGGAGACUAGUAACUAGAUCCUAAGGCAAAGAGGUGUUUCUCCUUCUGGAUGAUU	0.449
CUGUACCACUAGGGCAUCCAGAACAAGCCCCACCCUAACAGUGGGGGCAGGGAGGGUACAGCCAGGCUCACAGCACUGAGAGUCUCAACCAGCUAAGCUAAAUUGCAAGC	0.346
CUGGCUGACAGAUGCUGCUCUUGGGCACCUGUCCCCACCCCACCUGCCCUGCUGUCCUCUGUAUCACACAAGACGUCUCGCUUGCUGUGUCGUGGUUUAGCUCCUCGGUG	0.37
